Results pooled from the literature.
Numbered parts are unrelated; each lists some results of a single study.
UniProt P49840, sequence (whole entry, looked up): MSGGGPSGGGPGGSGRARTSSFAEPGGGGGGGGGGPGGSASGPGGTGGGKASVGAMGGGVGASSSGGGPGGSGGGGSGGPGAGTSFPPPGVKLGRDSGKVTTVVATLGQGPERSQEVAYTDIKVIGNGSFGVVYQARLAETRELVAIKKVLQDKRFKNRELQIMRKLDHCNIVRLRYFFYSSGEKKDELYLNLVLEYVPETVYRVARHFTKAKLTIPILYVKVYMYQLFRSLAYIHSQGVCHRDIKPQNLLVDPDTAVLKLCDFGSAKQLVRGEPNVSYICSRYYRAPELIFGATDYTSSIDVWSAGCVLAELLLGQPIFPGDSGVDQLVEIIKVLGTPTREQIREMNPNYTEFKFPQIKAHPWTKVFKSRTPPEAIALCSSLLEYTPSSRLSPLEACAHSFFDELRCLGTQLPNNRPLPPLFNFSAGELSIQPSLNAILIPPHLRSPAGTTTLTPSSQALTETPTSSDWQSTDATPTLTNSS
UniProt Q59H18, sequence (whole entry, looked up): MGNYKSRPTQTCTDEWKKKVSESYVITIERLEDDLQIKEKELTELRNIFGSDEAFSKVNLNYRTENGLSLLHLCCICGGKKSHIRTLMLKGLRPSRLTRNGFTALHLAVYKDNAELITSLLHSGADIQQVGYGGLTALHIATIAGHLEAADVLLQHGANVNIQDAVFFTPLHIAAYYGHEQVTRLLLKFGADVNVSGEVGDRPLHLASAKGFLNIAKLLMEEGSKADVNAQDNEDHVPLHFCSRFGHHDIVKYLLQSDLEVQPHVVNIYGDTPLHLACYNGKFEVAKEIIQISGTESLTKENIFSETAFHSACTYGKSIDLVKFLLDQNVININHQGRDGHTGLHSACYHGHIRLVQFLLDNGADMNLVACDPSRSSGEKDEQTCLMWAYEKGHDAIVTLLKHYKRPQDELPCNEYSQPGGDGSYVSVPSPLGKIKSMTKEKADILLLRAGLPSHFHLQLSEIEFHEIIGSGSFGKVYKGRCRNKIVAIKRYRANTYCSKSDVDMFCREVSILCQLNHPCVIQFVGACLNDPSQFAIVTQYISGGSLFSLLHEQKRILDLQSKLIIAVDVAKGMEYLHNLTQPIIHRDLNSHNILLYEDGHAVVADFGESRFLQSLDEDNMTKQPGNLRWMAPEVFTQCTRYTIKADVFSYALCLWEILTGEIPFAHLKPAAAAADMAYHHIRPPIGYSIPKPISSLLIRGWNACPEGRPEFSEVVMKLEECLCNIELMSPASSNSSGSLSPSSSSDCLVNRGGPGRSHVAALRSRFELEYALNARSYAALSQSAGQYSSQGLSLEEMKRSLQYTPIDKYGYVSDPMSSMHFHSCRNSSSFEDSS
UniProt P36897, sequence (whole entry, looked up): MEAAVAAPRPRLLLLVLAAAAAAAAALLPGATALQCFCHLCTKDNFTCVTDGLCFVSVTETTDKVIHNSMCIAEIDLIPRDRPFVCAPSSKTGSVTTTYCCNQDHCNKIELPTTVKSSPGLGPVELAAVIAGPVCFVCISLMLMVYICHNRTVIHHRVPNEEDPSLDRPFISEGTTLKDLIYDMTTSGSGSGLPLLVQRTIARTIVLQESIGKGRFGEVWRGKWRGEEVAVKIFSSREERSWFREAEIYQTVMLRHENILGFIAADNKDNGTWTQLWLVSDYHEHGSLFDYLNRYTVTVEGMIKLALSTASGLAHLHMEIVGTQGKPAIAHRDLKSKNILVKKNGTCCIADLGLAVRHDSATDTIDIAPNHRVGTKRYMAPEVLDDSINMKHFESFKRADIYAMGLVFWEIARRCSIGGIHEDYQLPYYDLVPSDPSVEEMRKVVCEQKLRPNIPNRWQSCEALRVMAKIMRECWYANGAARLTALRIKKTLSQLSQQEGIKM
UniProt P29323, sequence (whole entry, looked up): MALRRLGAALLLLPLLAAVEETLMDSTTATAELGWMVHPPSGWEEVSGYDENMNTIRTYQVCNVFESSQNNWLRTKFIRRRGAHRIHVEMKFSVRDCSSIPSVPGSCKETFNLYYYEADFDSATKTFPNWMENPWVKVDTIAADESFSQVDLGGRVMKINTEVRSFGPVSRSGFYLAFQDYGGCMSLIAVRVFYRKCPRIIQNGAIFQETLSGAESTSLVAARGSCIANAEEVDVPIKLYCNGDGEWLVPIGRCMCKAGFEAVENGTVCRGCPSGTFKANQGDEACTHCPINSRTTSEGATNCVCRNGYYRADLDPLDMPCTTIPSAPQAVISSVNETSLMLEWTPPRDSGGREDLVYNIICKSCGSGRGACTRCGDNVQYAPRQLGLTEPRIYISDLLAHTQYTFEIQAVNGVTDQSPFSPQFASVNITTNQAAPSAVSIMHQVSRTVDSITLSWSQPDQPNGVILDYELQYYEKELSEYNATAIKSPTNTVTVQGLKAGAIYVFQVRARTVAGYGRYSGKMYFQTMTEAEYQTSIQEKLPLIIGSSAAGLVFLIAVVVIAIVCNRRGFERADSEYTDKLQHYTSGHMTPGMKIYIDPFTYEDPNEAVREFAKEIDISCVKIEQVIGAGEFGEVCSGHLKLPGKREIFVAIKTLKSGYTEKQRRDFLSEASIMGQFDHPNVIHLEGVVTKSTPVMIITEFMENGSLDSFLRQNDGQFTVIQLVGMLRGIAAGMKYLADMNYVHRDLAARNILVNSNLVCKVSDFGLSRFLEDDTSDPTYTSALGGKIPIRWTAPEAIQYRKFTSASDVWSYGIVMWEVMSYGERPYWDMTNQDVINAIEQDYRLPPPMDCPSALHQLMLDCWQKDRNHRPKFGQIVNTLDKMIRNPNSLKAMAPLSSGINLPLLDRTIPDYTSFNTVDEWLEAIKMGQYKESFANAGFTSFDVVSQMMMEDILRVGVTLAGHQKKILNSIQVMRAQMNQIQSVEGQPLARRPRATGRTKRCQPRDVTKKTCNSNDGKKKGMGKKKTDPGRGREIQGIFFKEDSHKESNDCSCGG
UniProt P78356, sequence (whole entry, looked up): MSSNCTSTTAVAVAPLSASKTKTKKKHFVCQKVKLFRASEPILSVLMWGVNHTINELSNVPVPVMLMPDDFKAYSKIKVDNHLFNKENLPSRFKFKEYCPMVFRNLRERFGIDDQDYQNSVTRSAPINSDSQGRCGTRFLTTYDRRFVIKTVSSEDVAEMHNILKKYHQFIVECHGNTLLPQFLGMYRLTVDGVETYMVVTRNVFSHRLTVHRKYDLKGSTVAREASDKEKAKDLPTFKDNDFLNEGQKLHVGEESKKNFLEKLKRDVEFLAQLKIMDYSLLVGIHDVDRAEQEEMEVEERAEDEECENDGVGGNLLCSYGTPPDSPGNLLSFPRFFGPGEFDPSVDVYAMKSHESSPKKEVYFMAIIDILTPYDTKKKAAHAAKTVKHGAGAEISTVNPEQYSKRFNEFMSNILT
UniProt P19784, sequence (whole entry, looked up): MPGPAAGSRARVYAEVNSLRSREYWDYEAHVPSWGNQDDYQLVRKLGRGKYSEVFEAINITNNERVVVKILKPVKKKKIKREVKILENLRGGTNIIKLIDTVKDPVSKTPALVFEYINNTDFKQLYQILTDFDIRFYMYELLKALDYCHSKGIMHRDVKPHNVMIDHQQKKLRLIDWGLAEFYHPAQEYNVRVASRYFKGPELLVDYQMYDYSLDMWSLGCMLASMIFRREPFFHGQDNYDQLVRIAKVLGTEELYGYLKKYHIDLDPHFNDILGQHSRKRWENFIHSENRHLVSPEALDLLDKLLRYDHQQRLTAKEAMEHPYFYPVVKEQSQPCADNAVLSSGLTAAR
UniProt O00444, sequence (whole entry, looked up): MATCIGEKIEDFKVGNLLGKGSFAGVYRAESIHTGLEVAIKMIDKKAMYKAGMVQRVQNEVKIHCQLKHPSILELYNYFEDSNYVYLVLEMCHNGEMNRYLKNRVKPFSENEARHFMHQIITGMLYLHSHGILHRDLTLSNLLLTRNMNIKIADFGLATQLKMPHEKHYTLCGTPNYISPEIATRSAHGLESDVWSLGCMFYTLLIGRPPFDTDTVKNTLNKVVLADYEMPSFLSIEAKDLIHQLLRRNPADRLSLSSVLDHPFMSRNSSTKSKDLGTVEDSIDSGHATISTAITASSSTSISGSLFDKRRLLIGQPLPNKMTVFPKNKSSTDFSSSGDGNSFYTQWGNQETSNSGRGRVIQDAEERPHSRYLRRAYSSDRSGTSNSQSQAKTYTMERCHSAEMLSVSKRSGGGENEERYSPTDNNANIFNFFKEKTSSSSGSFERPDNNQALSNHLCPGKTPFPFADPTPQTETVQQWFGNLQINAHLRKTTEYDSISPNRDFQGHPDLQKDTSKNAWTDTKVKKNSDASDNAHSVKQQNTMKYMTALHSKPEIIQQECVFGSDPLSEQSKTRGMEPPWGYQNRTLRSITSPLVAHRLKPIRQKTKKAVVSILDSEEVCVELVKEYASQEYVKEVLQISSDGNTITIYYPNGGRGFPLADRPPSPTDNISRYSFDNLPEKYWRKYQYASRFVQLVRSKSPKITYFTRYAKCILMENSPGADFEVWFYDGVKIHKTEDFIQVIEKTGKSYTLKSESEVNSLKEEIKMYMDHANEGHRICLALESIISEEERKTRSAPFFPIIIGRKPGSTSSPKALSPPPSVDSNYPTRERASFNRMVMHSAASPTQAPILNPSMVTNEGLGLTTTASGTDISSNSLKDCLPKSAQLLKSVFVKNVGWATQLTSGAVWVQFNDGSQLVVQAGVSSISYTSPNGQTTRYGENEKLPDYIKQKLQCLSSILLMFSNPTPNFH
UniProt O00141, sequence (whole entry, looked up): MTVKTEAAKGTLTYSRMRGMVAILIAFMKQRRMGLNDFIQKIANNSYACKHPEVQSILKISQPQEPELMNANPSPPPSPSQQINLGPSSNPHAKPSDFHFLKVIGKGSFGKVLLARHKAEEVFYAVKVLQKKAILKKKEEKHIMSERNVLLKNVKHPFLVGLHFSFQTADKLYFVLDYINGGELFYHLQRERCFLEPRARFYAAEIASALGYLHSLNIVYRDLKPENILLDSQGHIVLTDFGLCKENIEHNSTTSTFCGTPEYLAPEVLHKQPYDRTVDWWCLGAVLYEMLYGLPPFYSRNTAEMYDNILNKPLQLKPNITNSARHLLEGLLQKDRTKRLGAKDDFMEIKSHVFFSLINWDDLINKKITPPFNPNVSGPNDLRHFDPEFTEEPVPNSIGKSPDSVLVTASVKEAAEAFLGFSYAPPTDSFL

Study 1
SMILES: O=C(Nc1cnn(-c2csc(C(=O)NC3COC3)c2)c1)Nc1c(F)cccc1Cl
Observed: enzyme activity
Concentration: 5 µM
Reference: untreated control
| target | remaining activity [%] |
| --- | --- |
| GSK3A (Homo sapiens, UniProt P49840) | 93.5 |
| TGFBR1 (Homo sapiens, UniProt P36897) | 97.3 |
| PDGFRB (Homo sapiens, UniProt P09619) | 92.4 |
| MUSK (Homo sapiens, UniProt O15146) | 86.2 |
| MAPK3 (Homo sapiens, UniProt P27361) | 92.1 |
| MARK1 (Homo sapiens, UniProt Q9P0L2) | 108 |
| PLK4 (Homo sapiens, UniProt O00444) | 83.8 |
| CSNK2A2 (Homo sapiens, UniProt P19784) | 96 |

Study 2
Compound: O=c1cc(N2CCOCC2)oc2c(-c3ccccc3)cccc12
Observed: enzyme activity
Action: inhibitor
Concentration: 0.5 µM
Reference: control
| target | remaining activity [%] |
| --- | --- |
| Aurora kinase C (AURKC, Homo sapiens, UniProt Q9UQB9) | 97 |
| PRKCE (Homo sapiens, UniProt Q02156) | 102 |
| CSK (Homo sapiens, UniProt P41240) | 88.1 |
| PAK2 (Homo sapiens, UniProt Q13177) | 103 |
| GRK6 (Homo sapiens, UniProt P43250) | 93 |
| EPHB2 (Homo sapiens, UniProt P29323) | 99.8 |
| EPHA7 (Homo sapiens, UniProt Q15375) | 102 |
| GSK3A (Homo sapiens, UniProt P49840) | 93.5 |
| RPS6KB1 (Homo sapiens, UniProt P23443) | 101 |
| SGK1 (Homo sapiens, UniProt O00141) | 101 |
| PRKCG (Homo sapiens, UniProt P05129) | 94.2 |
| CSF1R (Homo sapiens, UniProt P07333) | 98.3 |
| GRK2 (Homo sapiens, UniProt P25098) | 106 |

Study 3
Compound: CC(C)n1cnc(-c2ccc(F)cc2)c1-c1ncc(C(=O)Nc2ccc(N3CCN(C)CC3)cc2)[nH]1
Method: Phase 2a trial
Host: idiopathic pulmonary fibrosis patients
| item | dose | notes | patients with adverse events [%] |
| --- | --- | --- | --- |
| weight increased | 60 mg once daily | grade 2 maximum intensity | 0 |
| gamma-glutamyltransferase increased | dose not given | grade 4 maximum intensity, all arms | 0 |
| urinary tract infection | dose not given | grade 5 maximum intensity, all arms | 0 |
| weight increased | 30 mg once daily | grade 4 maximum intensity | 0 |
| muscular weakness | 60 mg once daily | grade 2 maximum intensity | 0 |
| bile acids increased | 60 mg once daily | grade 4 maximum intensity | 0 |
| bile acids increased | dose not given | grade 4 maximum intensity, all arms | 0 |
| reticulocyte count increased | 30 mg once daily | grade 1 maximum intensity | 0 |

Study 4
SMILES: CS(=O)(=O)N1CCCC(NC(=O)[C@H](CCC2CCCCC2)NC(=O)c2ccc(CNC(=O)c3cnc4ccccn34)cc2)C1 (stereo partly drawn)
Observed: cell-free assay
Method: competition with immobilised ligand
Concentration: 0.1 µM
| target | remaining binding |
| --- | --- |
| ACVR1 (Homo sapiens, UniProt Q04771) | 70% |
| ALK (Homo sapiens, UniProt Q9UM73) | 100% |
| CDK2 (Homo sapiens, UniProt P24941) | 88% |
| DCLK3 (Homo sapiens, UniProt Q9C098) | 97% |
| TNNI3K (Homo sapiens, UniProt Q59H18) | 89% |
| HIPK2 (Homo sapiens, UniProt Q9H2X6) | 100% |
| PRKX (Homo sapiens, UniProt P51817) | 65% |
| FLT3 (Homo sapiens, UniProt P36888, N841I) | 67% |
| MAP3K19 (Homo sapiens, UniProt Q56UN5) | 71% |
| NLK (Homo sapiens, UniProt Q9UBE8) | 100% |
| BRAF (Homo sapiens, UniProt P15056) | 47% |
| Tyrosine-protein kinase ABL1, phosphorylated (ABL1, Homo sapiens, UniProt P00519, M351T) | 100% |
| HCK (Homo sapiens, UniProt P08631) | 100% |
| KIT (Homo sapiens, UniProt P10721, V559D/V654A) | 100% |
| CDK17 (Homo sapiens, UniProt Q00537) | 80% |
| PIP4K2B (Homo sapiens, UniProt P78356) | 100% |

Some of these lines once more (study 1):
| target | remaining activity [%] |
| --- | --- |
| MUSK (Homo sapiens, UniProt O15146) | 86.2 |
| MARK1 (Homo sapiens, UniProt Q9P0L2) | 108 |
| TGFBR1 (Homo sapiens, UniProt P36897) | 97.3 |
